Measured values collected from several papers.
Each line is one published result; not all experiments were run side by side. ± marks the error that the study gave.

CCNC(=O)OCc1c(COC(=O)NCC)c(-c2ccc(OC)cc2)n2c1Cc1ccccc1-2
blood glucose (BALB/c nude mice, blood; day 10): 145 ± 19 mg/dL

O=C([O][Ti+2][O]C(=O)c1ccc(P(c2ccccc2)c2ccccc2)cc1)c1ccc(P(c2ccccc2)c2ccccc2)cc1.[Cl][Au].[Cl][Au].c1cc[cH-]c1.c1cc[cH-]c1
blood concentration (ICP-MS, refers to: gold; NOD.CB17-Prkdc scid/J mice, blood; 7.5 mg/kg, 24 h after first dose): 5.5 µg/mL

Cn1cc2cc1C(=O)NCCCC(=O)Nc1cn(C)c(n1)C(=O)Nc1cn(C)c(n1)C(=O)Nc1cc(n(C)c1)C(=O)Nc1cc(n(C)c1)C(=O)NC[C@H](N)CC(=O)Nc1cc(n(C)c1)C(=O)Nc1cc(n(C)c1)C(=O)Nc1cc(n(C)c1)C(=O)N2
blood concentration (C57BL/6 mice, blood; intraperitoneal, 120 nmol/animal, 1.5 h, corrected for extraction efficiency): 4.6 µM

COCCOCCOCCOCCOCCOCCOCCNC(=O)CCC1(CCC(=O)NCCOCCOCCOCCOCCOCCOCCOC)c2ccccc2-c2ccc(-c3sc(-c4c5c(c(-c6sc(-c7ccc8c(c7)C(CCC(=O)NCCOCCOCCOCCOCCOCCOCCOC)(CCC(=O)NCCOCCOCCOCCOCCOCCOCCOC)c7ccccc7-8)c7c6OCCO7)c6nsnc46)N=S=N5)c4c3OCCO4)cc21
blood half-life (NIR-II fluorescence; KM mice, female, whole blood; intravenous, 15 mg/kg): ~56 min

C[C@]12CC[C@@H]3c4ccc(OCC(=O)N[C@@H](CCCCNC(=O)CN5CCN(CC(=O)[O-])CCN(CC(=O)[O-])CCN(CC(=O)[O-])CC5)C(=O)O)cc4CC[C@H]3[C@@H]1CCC2=O.[68Ga+3]
blood radioactivity (female Balb/c mice; dose not given, 2.5 h): < 0.5 %IA/g

CCCC[C@@H]1NC(=O)[C@@H](NC(=O)[C@H](CCC(=O)O)NC(=O)CNC(=O)CN2CCN(CC(=O)O)CCN(CC(=O)O)CCN(CC(=O)O)CC2)CCCCNC(=O)C[C@@H](C(N)=O)NC(=O)[C@H](C(C)C)NC(=O)[C@@H]2CCCN2C(=O)[C@H](CCCNC(=N)N)NC(=O)CNC(=O)[C@H](Cc2c[nH]c3ccccc23)NC(=O)[C@H](CCCNC(=N)N)NC(=O)[C@@H](Cc2ccccc2)NC(=O)[C@H](Cc2c[nH]cn2)NC(=O)[C@H](CCC(=O)O)NC1=O [gallium-67 labelled]
blood uptake (C57 mice, B16/F1 melanoma, blood; 0.5 h): 1.22 ± 0.59 %ID/g

CCC(=O)N1CCC(NC(=O)Nc2ccc(OC(F)(F)F)cc2)CC1
blood concentration (C57BL/6J mice, male, wild type, blood; subcutaneous, 0.3 mg/kg, 14 days after dosing): > 0.0025 µM

COc1cc2c(cc1OC)CN(CCCCn1ccc3cc(OCC[18F])ccc31)C2
blood uptake (male ICR mice; intravenous, 280 kBq, 2 min post-injection): 2.77 ± 0.1 %ID/g

COCCOCCOCCOCCOCCOCCOCCOCCOCCOCCOCCOCCOCCOCCOCCOCCOCCOCCOCCOCCOCCOCCNC(=O)CCC1(Cc2ccccc2)c2ccccc2-c2ccc(-c3sc(-c4c5c(c(-c6sc(-c7ccc8c(c7)C(CCC(=O)NCCOCCOCCOCCOCCOCCOCCOCCOCCOCCOCCOCCOCCOCCOCCOCCOCCOCCOCCOCCOCCOCCOC)(Cc7ccccc7)c7ccccc7-8)c7c6OCCO7)c6nsnc46)N=S=N5)c4c3OCCO4)cc21 (stereo not drawn)
blood half-life (NIR-II fluorescence; KM mice, female, whole blood; intravenous, 15 mg/kg): 179 min

Repeated from above:
COCCOCCOCCOCCOCCOCCOCCOCCOCCOCCOCCOCCOCCOCCOCCOCCOCCOCCOCCOCCOCCOCCNC(=O)CCC1(Cc2ccccc2)c2ccccc2-c2ccc(-c3sc(-c4c5c(c(-c6sc(-c7ccc8c(c7)C(CCC(=O)NCCOCCOCCOCCOCCOCCOCCOCCOCCOCCOCCOCCOCCOCCOCCOCCOCCOCCOCCOCCOCCOCCOC)(Cc7ccccc7)c7ccccc7-8)c7c6OCCO7)c6nsnc46)N=S=N5)c4c3OCCO4)cc21 (stereo not drawn)
blood half-life (NIR-II fluorescence; KM mice, female, whole blood; intravenous, 15 mg/kg): 179 min
